# Measurements gathered from unrelated publications.
# Numbered parts are unrelated; each lists some results of a single study. Substitutions count along the parent as printed.

# Study 1 — technique: competition protein-binding microarray; molecule type: double-stranded DNA, one strand shown; matrix: in vitro; concentration: 2 µM; with: Pho4 competitor, 0.05 µM; reading: higher = stronger binding; all sequences stand within: … GTCTTGATTCGCTTGACGCTGCTG
# Target: Centromere-binding protein 1, full length, His-tagged (CBF1, Saccharomyces cerevisiae, UniProt P17106, residues 1-351)
# Chain of UniProt P17106 (whole entry, looked up): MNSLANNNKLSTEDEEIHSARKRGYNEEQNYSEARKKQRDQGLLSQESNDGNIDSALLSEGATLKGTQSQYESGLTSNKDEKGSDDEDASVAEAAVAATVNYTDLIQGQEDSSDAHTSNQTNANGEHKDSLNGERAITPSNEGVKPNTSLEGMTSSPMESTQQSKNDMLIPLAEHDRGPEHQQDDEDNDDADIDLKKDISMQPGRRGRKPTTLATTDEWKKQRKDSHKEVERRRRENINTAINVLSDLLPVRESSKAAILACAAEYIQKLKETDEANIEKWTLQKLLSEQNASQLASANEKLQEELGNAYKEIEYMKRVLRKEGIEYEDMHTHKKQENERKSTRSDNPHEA
# Setting: whole 60-bp probe, lowest competitor level
Sequence,fluorescence intensity
TTGAGAAGTGGGACCCACGTGCCACTCCCTGTTCTG,1160 a.u.
ATAACCACTAAATTCAAAAACACTTATTTTCAATAT,114 a.u.
CGCTTATTTGTAGAGTTTGTAGTTTTTAAGCGTTCT,87.6 a.u.
GTCGTCTATGGGTGTTGCGTGGGTAGTTCTCGCGCT,83.1 a.u.
AGCACCCAATTGGGCCATGTGTGTTTAACGCCGGGC,72 a.u.
ACTACTAGCCCTCCACACGTTCGAGGCCAGGTTGAT,66 a.u.
TCTCTGGCCCGAAACCTCGTGTTGGTACAAATCCTC,107 a.u.
GCAGGGAGCGTCCAACACGTCAGCGTCAATTCCTTC,57.5 a.u.
CGTCCTAGTGATTGTCGAGTGGGTGCCATGAGGAAG,91.4 a.u.
TTCAGAGAACTCCTTCATGTGCTTCAAGACAGAGTC,91 a.u.
AGTATGTTGGTCTTGGTCGTGCTGTAGGTTTTGAGT,75.1 a.u.
AAATTACTAAGTTGTCGTGTGGGTGACGCCGTATGA,68.1 a.u.
CATACCCAACCTTTTCACGTGAAATAAGATATTTGT,915 a.u.
CGTAAAAGAGAAAAGATCGTGCTTTCATCAAGCGCT,68.9 a.u.
ACATCATTCAAGCTAAGCGTGATGGCAAGGCTGCTG,101 a.u.
CGAAAACGGATGCCATGTTCCAGCACCAACTGCTAC,57.7 a.u.
TACAAGACTCCGAGTCACATGAAACCACACCTTCGG,394 a.u.
AGTATATCTGATCCGCACGTGATGGCCACTTAATCG,2920 a.u.
GGACACTTTTCCCGTCACGTGGAACCGGCTTACAAG,3580 a.u.

# Study 2 — target: CCND3, cyclin fold, Cln2 fusion (human); technique: yeast growth competition, sequencing; matrix: yeast; setting: weak parent motif; relative to: not given; reading: higher = stronger binding
# Starting sequence: CDKN1B docking peptide (human); PSACRNLFGPVDH; partner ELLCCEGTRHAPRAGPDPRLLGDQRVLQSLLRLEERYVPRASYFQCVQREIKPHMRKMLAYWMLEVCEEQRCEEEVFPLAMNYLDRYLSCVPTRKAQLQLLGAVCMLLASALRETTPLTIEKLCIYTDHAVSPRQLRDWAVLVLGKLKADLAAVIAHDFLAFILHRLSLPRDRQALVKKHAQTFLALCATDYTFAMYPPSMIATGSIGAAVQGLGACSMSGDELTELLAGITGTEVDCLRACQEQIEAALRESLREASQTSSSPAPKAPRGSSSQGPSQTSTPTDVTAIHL
Substitution,normalised enrichment score
PSACRNLFGPVIH [D12I],0.0879
PSACRNLFGYVDH [P10Y],0.19
PSACRNLFGPVYH [D12Y],0.189
PSACRNLFGMVDH [P10M],0.0457
PSACRNLFGPSDH [V11S],0.113
PSPCRNLFGPVDH [A3P],-0.00394
PSCCRNLFGPVDH [A3C],0.127
PSACRNLFGKVDH [P10K],0.12
PSACRNLFGPHDH [V11H],0.182
PSAWRNLFGPVDH [C4W],0.133
PSACRNLFGPVPH [D12P],0.0796
ISACRNLFGPVDH [P1I],0.0706
PSWCRNLFGPVDH [A3W],0.145
PSACRNLFGPVMH [D12M],0.14
PSACDNLFGPVDH [R5D],0.0776

# Study 3 — technique: Sort-seq; item: YFP reporter; matrix: E. coli; setting: PhoQ-PhoP variant library; with: 10 µM Mg2+; relative to: high Mg2+ state; reading: higher = stronger signaling
# Substance: PhoQ, residues 284 288 289 292 302 303 NLGVHL
target,fold induction
"PhoP, residues 12 14 15 18 19 LHHYF (Escherichia coli, UniProt P23836)",0.147
"PhoP, residues 12 14 15 18 19 NFFVT (Escherichia coli, UniProt P23836)",5.13
"PhoP, residues 12 14 15 18 19 VGHWL (Escherichia coli, UniProt P23836)",1.87
"PhoP, residues 12 14 15 18 19 TPWTL (Escherichia coli, UniProt P23836)",7.14

# Study 4 — technique: protein binding microarray; molecule type: double-stranded DNA, one strand shown; matrix: in vitro; concentration: not given; relative to: not given; reading: higher = stronger binding
# Target: Histone acetyltransferase KAT6A, winged helix 1, GST fusion (KAT6A, Homo sapiens, UniProt Q92794, residues 1-85)
# Setting: 8-mer, flanks averaged, mean of 2 arrays, mostly near background
# Residues (chain): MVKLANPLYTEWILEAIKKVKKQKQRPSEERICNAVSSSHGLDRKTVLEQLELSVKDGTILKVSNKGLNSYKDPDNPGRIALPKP
Sequence,E-score
ATCATAAA,-0.222
ATATGAAG,0.000615
CCCTGTGA,-0.24
CCCTATAC,-0.0795
ATGCCGAC,0.347
ATTTCGAA,-0.229
GGGTTAAA,0.0405
AGGCTGAC,-0.117
ACCGTCTC,0.0867
CTGGATCA,-0.116
AGGAGCCA,-0.308
ACGGCTAG,0.361
AAGGGCCC,0.0396
AGCGGACA,0.256
GGAGGCTA,0.0878
AGACATCG,-0.141
AGGGACTC,0.0322
GCGCTATA,0.302
CATCATGA,-0.223

# Some of these lines once more (study 1):
Sequence,fluorescence intensity
ATAACCACTAAATTCAAAAACACTTATTTTCAATAT,114 a.u.
CGTAAAAGAGAAAAGATCGTGCTTTCATCAAGCGCT,68.9 a.u.
GTCGTCTATGGGTGTTGCGTGGGTAGTTCTCGCGCT,83.1 a.u.
AAATTACTAAGTTGTCGTGTGGGTGACGCCGTATGA,68.1 a.u.
